Assay results from different studies.
Parts stem from different laboratories: compare values within a part only. Positions count from the first letter of the parent shown.

Series 1
Target: Histone acetyltransferase KAT6A, winged helix 2, GST fusion (KAT6A, Homo sapiens, UniProt Q92794, residues 85-181)
Method: protein binding microarray
Form: double-stranded DNA, one strand shown
Matrix: in vitro
Tested at: not given
Setting: 8-mer, flanks averaged, mean of 2 arrays, mostly near background
Reference: not given
Direction: higher = stronger binding
Residues (chain): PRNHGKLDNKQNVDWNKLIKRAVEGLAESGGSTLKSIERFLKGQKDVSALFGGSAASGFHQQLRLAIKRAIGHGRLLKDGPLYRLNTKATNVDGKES
With `AGAATTAC` the E-score was 0.0521.
`ATCAATTC` has an E-score of 0.0996.
For `CTAAGCAA`, the E-score was -0.0785.
`AAGTCCCA` gave an E-score of -0.0881.
`CCGCATGA` gave an E-score of 0.0529.
For `GAATAAGA`, the E-score was 0.0451.
For `CAATTGAC`, the E-score was 0.0341.
`CACATGTG` has an E-score of -0.301.
The E-score of `CAGCGCGG` is reported as 0.105.
For `CGCTCCAA`, the E-score was -0.00107.
`CGAAATCG` has an E-score of 0.0862.
For `ACTAGTTA`, the E-score was -0.114.
`GATGTAGA` gave an E-score of -0.158.
`AAGGCCGC` has an E-score of 0.177.
For `CAGTGGGG`, the E-score was -0.0816.
`CTCGGAAA` has an E-score of 0.0222.
`CCATATGG` gave an E-score of -0.113.
With `ATGCGGTC` the E-score was 0.146.

Series 2
Target: ABI1, truncated, D143A, DHFR fusion (Arabidopsis thaliana)
Method: DHFR PCA, deep sequencing
Matrix: yeast
Setting: methotrexate growth selection, single substitutions
Added: (+)-ABA 0.032 µM
Reference: wild-type fitted maximum
Direction: higher = stronger binding
Parent: PYL1, truncated, DHFR fusion (Arabidopsis thaliana); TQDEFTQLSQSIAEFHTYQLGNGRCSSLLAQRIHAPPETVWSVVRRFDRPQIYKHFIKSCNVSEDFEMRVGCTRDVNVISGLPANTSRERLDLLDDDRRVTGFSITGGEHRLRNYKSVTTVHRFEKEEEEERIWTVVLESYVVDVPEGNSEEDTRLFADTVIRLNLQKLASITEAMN
`E151I`: “relative binding score” 30.6%.
Under “relative binding score”, `P50E` is recorded as -10.2%.
`Y18Q` — result for “relative binding score”: -2.07%.
`R32I`: “relative binding score” 24.9%.
`V78H`: “relative binding score” 51.9%.
Under “relative binding score”, `R45L` is recorded as -1.12%.
`K168P` — result for “relative binding score”: -2.59%.
`E64K`: “relative binding score” 37.9%.
`N114F`: “relative binding score” -0.889%.
Under “relative binding score”, `Q51V` is recorded as -3.17%.
`L20M` — result for “relative binding score”: 22.5%.
For `G107S`, “relative binding score” read 32.2%.
For `R132E`, “relative binding score” read 53.7%.

Series 3
Target: RNA binding protein fox-1 homolog 2, RRM domain, GST-SBP tag (RBFOX2, Homo sapiens, UniProt O43251-10, residues 100-194)
Method: RNA Bind-n-Seq
Form: RNA
Matrix: in vitro
Tested at: 365 nM
Setting: natural RNA segment, single round, ends assumed
Reference: no-protein control
Direction: higher = stronger binding
Residues (chain): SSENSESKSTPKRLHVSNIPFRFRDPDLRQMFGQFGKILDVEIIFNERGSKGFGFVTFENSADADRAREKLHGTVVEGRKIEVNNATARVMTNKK
Under “RBNS enrichment (R)”, `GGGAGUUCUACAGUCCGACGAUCAUAUUUCAAAUUGCACACGUCACUCCAGCAUCUCUGUAAAAUAAUUGGAAUGAAAAUACUUCUUGCACUUAAACACUGCACAUGCCGUACUUUGAGGUUAGUCUGAAUCUUGGAAUUCUCGGGUGCCAA` is recorded as 1.35.
For `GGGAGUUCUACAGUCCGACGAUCGCCACCAUCCCCUAGAAGUCCUGUCCUCUUCACCCUGCCCUACCUGAGCCGCUGACUCUUCUGGCAAAAAUUCUGUUGGGAUUUAAGGCCAAGGGUCAGUGGGUGGCAGGUGGAAUUCUCGGGUGCCAA`, “RBNS enrichment (R)” read 0.331.
For `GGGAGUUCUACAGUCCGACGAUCCUUUGCAUGGUGCUUAGUCAAGGACUCCUGCGACCUGGCUCCCGAGGUCAGCUGGCGGCGCUGACACACAUGCAUGGCAGACUAUCCCUGGCUCUAUCUCCCUGUUCCUCUGGAAUUCUCGGGUGCCAA`, “RBNS enrichment (R)” read 14.6.
`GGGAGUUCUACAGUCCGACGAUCCAUCCAGGCAGUCAUGUGUGAUGGGAGCACAUAGCAUCGGGAGAAGCAGAACUCCAUCCUCACCUCUAUUUUGAGCUUAGUGCUUUAUUUCAGUAUGAGGAAAAACAACAUGGAAUUCUCGGGUGCCAA` — result for “RBNS enrichment (R)”: 0.356.
Under “RBNS enrichment (R)”, `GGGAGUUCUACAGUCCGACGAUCGUGAGGGAGGCCAGGUAGCCGAGGGAUCAGGAUGCAGGCUGCUGUACCCGCUCUGCCUCAAGCAUCCCCCACACAGGGCUCUGGUUUUCACUCGCUUCGUCCUAGAUAGUUGGAAUUCUCGGGUGCCAA` is recorded as 0.274.
Under “RBNS enrichment (R)”, `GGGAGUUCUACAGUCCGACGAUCAAGCAUUGCCAUUGAAGGCUUAAUUGACUGAAAUUACUUUAACAUUUUGGAAAUUGUUGUAUAUCACUAAAAGCAUGAAUUGGAACUGCAAUGAAAGUCAAAUUUACUUUUGGAAUUCUCGGGUGCCAA` is recorded as 2.48.
`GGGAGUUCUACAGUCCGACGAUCUAUAGGAAAUAUUUUCAUUGAGUCCAAAAUACCACUGUUUUGUUGAUGGACUUGAAUGCAUUUUUGUCUCUUCUUGAUGAAGCGGCUUUGCCGCAGCAAAUGAGGCUUCUUGGAAUUCUCGGGUGCCAA` — result for “RBNS enrichment (R)”: 0.38.
For `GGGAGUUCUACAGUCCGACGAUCAGACAAAUGAAACCACGCUGCGCUUCCGAUGCCCCCGCUUGCCGUGUAAUGGUUCAGCUAAUCCCAUGGCGAGAUGGGGGCUCACUCCGGAGGAGGAGCCAGGCAGCAGGUGGAAUUCUCGGGUGCCAA`, “RBNS enrichment (R)” read 0.287.

Series 4
Target: Sal-like protein 4, full length isoform A (SALL4, Homo sapiens, UniProt Q9UJQ4, residues 1-1053)
Chain of UniProt Q9UJQ4 (whole entry, looked up): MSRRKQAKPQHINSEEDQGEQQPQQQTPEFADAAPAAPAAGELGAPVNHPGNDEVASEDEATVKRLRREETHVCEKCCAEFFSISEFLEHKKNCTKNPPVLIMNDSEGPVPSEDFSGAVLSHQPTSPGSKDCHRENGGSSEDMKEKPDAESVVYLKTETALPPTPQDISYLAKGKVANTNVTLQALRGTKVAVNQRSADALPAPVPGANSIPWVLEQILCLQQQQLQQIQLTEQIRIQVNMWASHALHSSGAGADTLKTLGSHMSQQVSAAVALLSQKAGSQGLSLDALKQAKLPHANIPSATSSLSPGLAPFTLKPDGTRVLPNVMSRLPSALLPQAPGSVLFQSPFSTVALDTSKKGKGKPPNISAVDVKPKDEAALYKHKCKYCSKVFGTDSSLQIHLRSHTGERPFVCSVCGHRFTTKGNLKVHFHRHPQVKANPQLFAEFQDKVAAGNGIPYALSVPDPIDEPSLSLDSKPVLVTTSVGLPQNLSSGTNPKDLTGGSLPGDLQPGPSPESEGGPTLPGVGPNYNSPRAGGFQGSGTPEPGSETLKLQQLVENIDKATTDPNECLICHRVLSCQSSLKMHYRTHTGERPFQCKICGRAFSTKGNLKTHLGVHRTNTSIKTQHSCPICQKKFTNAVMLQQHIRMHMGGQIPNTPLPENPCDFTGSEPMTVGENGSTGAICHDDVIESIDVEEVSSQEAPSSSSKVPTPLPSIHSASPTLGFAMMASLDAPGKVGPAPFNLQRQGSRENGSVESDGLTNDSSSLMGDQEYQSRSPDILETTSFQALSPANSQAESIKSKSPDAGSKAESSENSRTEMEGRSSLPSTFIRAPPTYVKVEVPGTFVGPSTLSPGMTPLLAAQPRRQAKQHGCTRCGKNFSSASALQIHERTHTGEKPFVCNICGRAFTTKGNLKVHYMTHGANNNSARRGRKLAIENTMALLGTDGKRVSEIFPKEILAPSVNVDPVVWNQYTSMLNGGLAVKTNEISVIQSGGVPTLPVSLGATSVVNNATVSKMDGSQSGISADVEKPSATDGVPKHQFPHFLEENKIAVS
Method: universal PBM
Form: double-stranded DNA, one strand shown
Matrix: in vitro
Tested at: 600 nM
Setting: 8-mer, flanks averaged, mean of replicates
Direction: higher = stronger binding
`AAGTTCTG` has an E-score of 0.13.
For `GAGGGAGA`, the E-score was -0.123.
`GGCTTAAC` has an E-score of -0.0586.
`ACTCACAC` has an E-score of -0.0908.
For `AGGCCTTG`, the E-score was -0.324.
`CAGTGGAG` gave an E-score of -0.127.
For `CCCACTGA`, the E-score was -0.164.
`CGTAAGTC` gave an E-score of 0.0407.
`CCTTCGTA` has an E-score of -0.148.
With `CCAAGCAG` the E-score was -0.188.
The E-score of `ACAAACCG` is reported as -0.0596.
`AGATGCCG` has an E-score of -0.23.
`CGAGAAGC` gave an E-score of -0.0888.
For `CTGATTGC`, the E-score was -0.0284.
The E-score of `CGCATCAG` is reported as -0.063.
With `AGCGGGCA` the E-score was -0.276.
With `ATTTAGAA` the E-score was 0.2.
For `CTGTGGCA`, the E-score was -0.11.
With `CAAGTGCA` the E-score was -0.00336.
For `ATATCAAT`, the E-score was 0.365.
The E-score of `TCTAAGAA` is reported as 0.232.
With `GTCGCACA` the E-score was -0.126.
With `AGGATCGC` the E-score was -0.182.
The E-score of `ATAGTAGG` is reported as 0.0839.

Series 5
Target: CCNB1, cyclin fold, Cln2 fusion (human)
Method: yeast growth competition, sequencing
Matrix: yeast
Setting: weak parent motif
Reference: not given
Direction: higher = stronger binding
Parent: WEE1 docking peptide (human); CTLRQKLIFSPCS
Under “normalised enrichment score”, `Q5A` is recorded as 0.566.
`R4A`: “normalised enrichment score” 0.441.
`C12A`: “normalised enrichment score” 0.68.
For `S10A`, “normalised enrichment score” read 0.246.
`K6A` — result for “normalised enrichment score”: 0.149.
For `F9A`, “normalised enrichment score” read 0.149.

Series 6
Target: RING finger protein unkempt homolog, zinc fingers 1-6, GST-SBP tag (UNK, Homo sapiens, UniProt Q9C0B0, residues 30-357)
Method: RNA Bind-n-Seq
Form: RNA
Matrix: in vitro
Tested at: not given
Setting: RNA with constant flanks, human and mouse sites, ends assumed
Reference: input RNA pool
Direction: higher = stronger binding
Target sequence (chain): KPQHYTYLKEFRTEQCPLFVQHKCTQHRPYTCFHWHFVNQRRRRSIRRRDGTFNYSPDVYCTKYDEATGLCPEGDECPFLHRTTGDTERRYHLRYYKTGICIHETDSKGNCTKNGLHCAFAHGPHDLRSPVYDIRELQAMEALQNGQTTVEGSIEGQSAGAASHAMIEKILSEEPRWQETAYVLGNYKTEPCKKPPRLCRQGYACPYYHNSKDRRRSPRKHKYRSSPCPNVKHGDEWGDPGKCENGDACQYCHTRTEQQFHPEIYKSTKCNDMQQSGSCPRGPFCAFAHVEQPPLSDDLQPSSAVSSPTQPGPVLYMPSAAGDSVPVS
`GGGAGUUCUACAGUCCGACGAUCUAUUCCUCUUCUGGAGUAUGUGUUCUCUAUGAGUGCAAGGACCAGACCAUGAAACUUGUUGAGAGUUCAGGCUGUCCAGCUUUGGAUUGUCCAGAGUCUCAUCAGAUAACCUUGUCUCACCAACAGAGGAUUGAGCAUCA` has a bound/input enrichment of 0.0683 ratio.
For `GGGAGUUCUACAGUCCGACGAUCAACUAAGCACAGAAGAGUUGGCGUCAUCUUAAAAAUACCAAAUAACAGAAGAUCGCAUUGCAGAUGAUAUCAGGAUGUGGUUUCCAGCUUUGCCUGAGGGAAUUCCAACAUGAGAUUAUGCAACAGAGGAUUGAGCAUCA`, the bound/input enrichment was 0.154 ratio.
`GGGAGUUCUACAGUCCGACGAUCUAUUAGUGUUGUACCAGCCUAUUAACCUCUUGUCUGUGCACAGCUUCAAAUGUUACCGUCUAGUUAGAUUUUUAUUUAAAAUAUGAAAAACUGCUUUUCCCAAGAUGUUUUUUAAAAACACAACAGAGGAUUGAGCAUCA` gave a bound/input enrichment of 146 ratio.
The bound/input enrichment of `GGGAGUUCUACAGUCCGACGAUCCCAUUUGUGAUCUCCCGCUCGACCUUUGCUGGCCACGGCCGAUACGCCGGCCACUGGACGGGGGACGUGUGGAGCUCCUGGGAGCAGCUCGCCUCCUCCGUGCCAGAAAUCCUGCAGUUUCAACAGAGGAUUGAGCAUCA` is reported as 0.0633 ratio.
For `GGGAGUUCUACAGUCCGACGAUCACUGGUCCUGAGAUUCCUGAAUCAGGUCCCUCCUCCGGCAUGUGUCAGCGCAACCCCCAGGUCUGCGGCCCAGGACGCUGCAUUUCCCGGCCCAGCGGCUACACCUGCGCUUGCGACUCUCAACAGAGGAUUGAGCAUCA`, the bound/input enrichment was 0.161 ratio.

Single results of other studies
With `PhoQ, residues 284 288 289 292 302 303 AQGLTV` the fold induction was 3.64 (PhoP, residues 12 14 15 18 19 LHTVL (Escherichia coli, UniProt P23836); Sort-seq, refers to: YFP reporter; E. coli; PhoQ-PhoP variant library, added: 10 µM Mg2+; reference: high Mg2+ state, higher = stronger signaling).

Excerpt of the above (series 4):
`CAGTGGAG` gave an E-score of -0.127.
For `CCCACTGA`, the E-score was -0.164.
`CGTAAGTC` gave an E-score of 0.0407.
`CCTTCGTA` has an E-score of -0.148.
With `CCAAGCAG` the E-score was -0.188.
The E-score of `ACAAACCG` is reported as -0.0596.
